Measurements pooled from the literature.
Values joined by “and” are separate records of one study, mostly repeats; a detail may differ. ± gives the spread as reported.
UniProt P20813, sequence (whole entry, looked up): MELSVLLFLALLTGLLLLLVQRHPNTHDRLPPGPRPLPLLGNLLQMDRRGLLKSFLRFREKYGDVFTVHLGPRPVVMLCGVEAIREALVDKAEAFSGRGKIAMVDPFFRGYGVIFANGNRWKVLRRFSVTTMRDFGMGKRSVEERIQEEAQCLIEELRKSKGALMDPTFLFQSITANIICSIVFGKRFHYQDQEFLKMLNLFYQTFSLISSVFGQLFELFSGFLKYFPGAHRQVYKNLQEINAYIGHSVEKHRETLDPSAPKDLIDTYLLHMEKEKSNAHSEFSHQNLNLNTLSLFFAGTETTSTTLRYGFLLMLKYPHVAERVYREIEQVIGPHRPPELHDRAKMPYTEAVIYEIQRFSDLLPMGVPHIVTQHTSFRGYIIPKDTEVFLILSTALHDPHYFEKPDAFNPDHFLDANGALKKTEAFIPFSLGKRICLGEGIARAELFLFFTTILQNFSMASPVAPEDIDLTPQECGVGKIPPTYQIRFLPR

CC(C)OCCOCc1ccc(OCC(O)CN(N=O)C(C)C)cc1 (stereo not shown)  revertant fold increase (Salmonella typhimurium; Ames test; TA100; 1580 µg/plate, 30 % rat S9; relative to: solvent control): 0.8 fold
COC1CN([C@H]2CC[C@H]([C@@]3(C)Oc4c(Cl)cc(C(=O)NCc5c(SC)cc(C)[nH]c5=O)c(C)c4O3)CC2)C1  log2 fold change (RNA-seq, refers to: IRF6; human, whole blood; dose not given, 24 h; relative to: pretreatment baseline): 1.11
C=C(NC(=O)c1csc(-c2nc3c(cc2O)-c2nc(cs2)C(=O)NC(C(C)O)C(=O)NC(=C(C)OC)c2nc(cs2)C(=O)NC2c4nc(cs4)C(=O)NC(COC(=O)c4c5c6c(cccc6n4O)COC(=O)C(OC4CC(C)(O)C(N(C)C)C(C)O4)C2OC5)c2nc-3cs2)n1)C(N)=O (stereo not shown)  Cmax (ICR mice, Streptococcus pneumoniae ATCC 49169 infected, immunocompromised, blood; intravenous, 16 mg/kg/day three times daily): 679 ng/mL
CCN(CC)CC#CCNc1ccnc2cc(Cl)ccc12  revertants per well (Salmonella typhimurium; mini-Ames test; TA102; 500.0 µg/well, without S9): 71
Cc1ccccc1-c1cc(CN2c3ccccc3C=Cc3ccccc32)on1  IC50 (BJ; cytotoxicity): > 30 µM
Cc1nc2cccc(OCC(C)(C)C(=O)NC(C)C)c2c(N)c1C(=O)[O-].[Na+]  relative mitotic index (human peripheral blood lymphocytes; 250 g/mL, 3 h, without S9): 79%
N#C[C@@H]1CC(F)(F)CN1C(=O)CNC(=O)c1ccnc2c(NC(=O)CCOCCOCCOCCOCCOCCOCCNC(=O)[C@H](CCCCNC(=O)CN3CCN(CC(=O)[O-])CCN(CC(=O)[O-])CCN(CC(=O)[O-])CC3)NC(=O)CCCc3ccc(I)cc3)cccc12.[177Lu+3]  tracer uptake (U-87 MG tumour model; host not given, blood; 1 h, tumour-bearing): 4.99 %ID/g
COc1cccc(OC)c1-c1cc(C(=O)NC2(C(=O)O)C3CC4CC(C3)CC2C4)nn1-c1ccc(C(=O)NCCNC(=O)[C@H](CCCCNC(=O)[C@H](CC(C)C)NC(=O)C2OC2C(=O)O)NC(=O)CN2CCN(CC(=O)[O-])CCN(CC(=O)[O-])CCN(CC(=O)[O-])CC2)cc1C(C)C.[177Lu+3] (mixture of isomers)  tracer uptake (HT-29 tumour model; host not given, blood; 4 h, tumour-bearing): 3.1 %ID/g
O=C1C2CC3CC1CC(C(=O)N1CCN(c4ccc([N+](=O)[O-])c5ncccc45)CC1)(C3)C2  mean revertant colonies (Salmonella typhimurium; Ames test; TA100; 0.31 µg/well, without S9): 18 colonies/well
Nc1nc2cc(C(=O)c3ccc(F)cc3)ccc2[nH]1  revertants (Salmonella typhimurium; Ames preincubation test; TA98; 312.5 µg per plate, 3 days, without S9): 18 revertants per plate
CNC(=O)C1CCCN(C(=O)C2CC3CCC2N3C(=O)[C@@H]2C[C@@H](O)CN2C(=O)NCc2cccc(Cl)c2F)C1 (mixture of isomers)  remaining activity (Cytochrome P450 2B6 (CYP2B6, Homo sapiens, UniProt P20813); preincubation with NADPH; human; 1.85 µM; relative to: negative control): 106% and 97.7% and 103%
O=C(Nc1cnccc1-c1ccc([18F])cc1)c1ccnc(NC(=O)C2CC2)c1  SUV (FVB/NJ mouse, both sexes, brain; intravenous, 5 min, with: tariquidar 15 mg/kg iv): 0.99
N#C[C@@H]1CCCN1C(=O)CNC(=O)c1ccnc2ccc(OCCCN3CCN(C(=O)CCc4ccc5c(c4)CN4CCN(Cc6cc(CCC(=O)O)ccc6O)CC(=O)[O][Al-]([18F])([O]C(=O)C4)[O]5)CC3)cc12 (stereo partly shown)  tracer uptake (U-87 MG tumour model; host not given, pancreas; 2 h, tumour-bearing): 1.34 %ID/g
O=C1NC2(CC2)COc2ncc(F)cc2[C@H]2COCCN2c2ccn3ncc1c3n2  revertant colonies (Salmonella typhimurium; Ames test; TA100; 5000 µg/plate, 48 h, with: rat liver S9): 62 ± 7 revertants/plate
COc1cccc(OC)c1-c1cc(C(=O)NC2(C(=O)O)C3CC4CC(C3)CC2C4)nn1-c1ccc(C(=O)N(C)CCOCCN(C)C(=O)[C@H](CCCCNC(=O)[C@H](CC(C)C)NC(=O)C2OC2C(=O)O)NC(=O)CN2CCN(CC(=O)[O-])CCN(CC(=O)[O-])CCN(CC(=O)[O-])CC2)cc1C(C)C.[177Lu+3] (mixture of isomers)  tracer uptake (HT-29 tumour model; host not given, blood; 7 days, tumour-bearing): 0.8 %ID/g
N#C[C@@H]1CC(F)(F)CN1C(=O)CNC(=O)c1ccnc2c(NC(=O)[C@@H](N)CCCCNC(=O)CCOCCOCCOCCOCCOCCOCCNC(=O)CN3CCN(CC(=O)[O-])CCN(CC(=O)[O-])CCN(CC(=O)[O-])CC3)cccc12.[177Lu+3]  tracer uptake (U-87 MG tumour model; host not given, blood; 1 h, tumour-bearing): 0.53 %ID/g
N#C[C@@H]1CCCN1C(=O)CNC(=O)c1ccnc2ccc(OCCCN3CCN(C(=O)CCc4ccc5c(c4)CN4CCN6CC(=O)[O][68Ga-]([O]C(=O)C4)([O]5)[O]c4ccc(CCC(=O)N5CCN(CCCOc7ccc8nccc(C(=O)NCC(=O)N9CCC[C@H]9C#N)c8c7)CC5)cc4C6)CC3)cc12  tracer uptake (U-87 MG tumour model; host not given, pancreas; 1 h, tumour-bearing): 2.48 %ID/g
COc1cccc(OC)c1-c1cc(C(=O)NC2(C(=O)O)C3CC4CC(C3)CC2C4)nn1-c1ccc(C(=O)N(C)CCCN(C)CCCN(C)C(=O)[C@H](CCCCNC(=O)[C@H](CC(C)C)NC(=O)C2OC2C(=O)O)NC(=O)CN2CCN(CC(=O)[O-])CCN(CC(=O)[O-])CCN(CC(=O)[O-])CC2)cc1C(C)C.[177Lu+3] (mixture of isomers)  tracer uptake (HT-29 tumour model; host not given, blood; 4 h, tumour-bearing): 2.1 %ID/g
N#C[C@@H]1CCCN1C(=O)CNC(=O)c1ccnc2ccc(OCCCN3CCN(C(=O)CCc4ccc(O)c(CN5CCN6CC(=O)[O][Al-]([18F])([O]C(=O)C5)[O]c5ccc(CCC(=O)N7CCN(CCCOc8ccc9nccc(C(=O)NCC(=O)N%10CCC[C@H]%10C#N)c9c8)CC7)cc5C6)c4)CC3)cc12 (stereo partly shown)  tracer uptake (U-87 MG tumour model; host not given, stomach; 2 h, tumour-bearing): 2.88 %ID/g
O=C(O)CCCOc1ccc(O)cc1-c1cc(-c2ccccc2C(F)(F)F)n(-c2ccccc2)n1  beat rate (human iPSC-derived cardiomyocytes; 20 µM): 42.5 ± 2.3 min⁻¹
CC(C)(O)c1ncc([S@](N)(=O)=NC(=O)Nc2c3c(cc4c2CCC4)CCC3)s1  subjects with TEAEs (refers to: general, administration-site conditions; healthy human; oral, 100 mg, CT formulation, fed): 50%
CC(C)(C)NCC(SS(=O)(=O)O)c1ccccc1 (stereo not shown)  body weight decrease (Schistosoma mansoni; perfusion day 44; infected Swiss Webster mice; 600 mg/kg single dose, dosed day 7 post-infection; relative to: vehicle control): 15%
N#C[C@@H]1CC(F)(F)CN1C(=O)CNC(=O)c1ccnc2c(NC(=O)[C@H](CCCCNC(=O)CCOCCOCCOCCOCCOCCOCCNC(=O)CN3CCN(CC(=O)[O-])CCN(CC(=O)[O-])CCN(CC(=O)[O-])CC3)NC(=O)CCCc3ccc(I)cc3)cccc12.[177Lu+3]  tracer uptake (U-87 MG tumour model; host not given, tumour; 4 h, tumour-bearing): 26.8 %ID/g
O=C(Nc1cnccc1-c1ccc([18F])nc1)c1ccnc(NC(=O)C2CC2)c1  median SUV (PET imaging; FVB/NJ mice, both sexes, brain; intravenous, 120 min post-injection, P-gp inhibited, with: tariquidar 15 mg/kg iv, 2 h before): 0.072
CN1CCCNC(=O)c2cccc(c2)C(=O)NCCCN(C)CCCNc2cccc3c2C(=O)c2cccc(c2C3=O)NCCC1  viability (HSC-2; cell growth or viability, CCK-8; 50 nM, 48 h): 96%

For quick reference, copied from above:
N#C[C@@H]1CCCN1C(=O)CNC(=O)c1ccnc2ccc(OCCCN3CCN(C(=O)CCc4ccc5c(c4)CN4CCN6CC(=O)[O][68Ga-]([O]C(=O)C4)([O]5)[O]c4ccc(CCC(=O)N5CCN(CCCOc7ccc8nccc(C(=O)NCC(=O)N9CCC[C@H]9C#N)c8c7)CC5)cc4C6)CC3)cc12  tracer uptake (U-87 MG tumour model; host not given, pancreas; 1 h, tumour-bearing): 2.48 %ID/g
O=C(Nc1cnccc1-c1ccc([18F])cc1)c1ccnc(NC(=O)C2CC2)c1  SUV (FVB/NJ mouse, both sexes, brain; intravenous, 5 min, with: tariquidar 15 mg/kg iv): 0.99
COc1cccc(OC)c1-c1cc(C(=O)NC2(C(=O)O)C3CC4CC(C3)CC2C4)nn1-c1ccc(C(=O)N(C)CCCN(C)CCCN(C)C(=O)[C@H](CCCCNC(=O)[C@H](CC(C)C)NC(=O)C2OC2C(=O)O)NC(=O)CN2CCN(CC(=O)[O-])CCN(CC(=O)[O-])CCN(CC(=O)[O-])CC2)cc1C(C)C.[177Lu+3] (mixture of isomers)  tracer uptake (HT-29 tumour model; host not given, blood; 4 h, tumour-bearing): 2.1 %ID/g
